# Experimental data collected from several papers.
# Numbered parts are unrelated; each lists some results of a single study.
# Sequence of UniProt P08069 (whole entry, looked up): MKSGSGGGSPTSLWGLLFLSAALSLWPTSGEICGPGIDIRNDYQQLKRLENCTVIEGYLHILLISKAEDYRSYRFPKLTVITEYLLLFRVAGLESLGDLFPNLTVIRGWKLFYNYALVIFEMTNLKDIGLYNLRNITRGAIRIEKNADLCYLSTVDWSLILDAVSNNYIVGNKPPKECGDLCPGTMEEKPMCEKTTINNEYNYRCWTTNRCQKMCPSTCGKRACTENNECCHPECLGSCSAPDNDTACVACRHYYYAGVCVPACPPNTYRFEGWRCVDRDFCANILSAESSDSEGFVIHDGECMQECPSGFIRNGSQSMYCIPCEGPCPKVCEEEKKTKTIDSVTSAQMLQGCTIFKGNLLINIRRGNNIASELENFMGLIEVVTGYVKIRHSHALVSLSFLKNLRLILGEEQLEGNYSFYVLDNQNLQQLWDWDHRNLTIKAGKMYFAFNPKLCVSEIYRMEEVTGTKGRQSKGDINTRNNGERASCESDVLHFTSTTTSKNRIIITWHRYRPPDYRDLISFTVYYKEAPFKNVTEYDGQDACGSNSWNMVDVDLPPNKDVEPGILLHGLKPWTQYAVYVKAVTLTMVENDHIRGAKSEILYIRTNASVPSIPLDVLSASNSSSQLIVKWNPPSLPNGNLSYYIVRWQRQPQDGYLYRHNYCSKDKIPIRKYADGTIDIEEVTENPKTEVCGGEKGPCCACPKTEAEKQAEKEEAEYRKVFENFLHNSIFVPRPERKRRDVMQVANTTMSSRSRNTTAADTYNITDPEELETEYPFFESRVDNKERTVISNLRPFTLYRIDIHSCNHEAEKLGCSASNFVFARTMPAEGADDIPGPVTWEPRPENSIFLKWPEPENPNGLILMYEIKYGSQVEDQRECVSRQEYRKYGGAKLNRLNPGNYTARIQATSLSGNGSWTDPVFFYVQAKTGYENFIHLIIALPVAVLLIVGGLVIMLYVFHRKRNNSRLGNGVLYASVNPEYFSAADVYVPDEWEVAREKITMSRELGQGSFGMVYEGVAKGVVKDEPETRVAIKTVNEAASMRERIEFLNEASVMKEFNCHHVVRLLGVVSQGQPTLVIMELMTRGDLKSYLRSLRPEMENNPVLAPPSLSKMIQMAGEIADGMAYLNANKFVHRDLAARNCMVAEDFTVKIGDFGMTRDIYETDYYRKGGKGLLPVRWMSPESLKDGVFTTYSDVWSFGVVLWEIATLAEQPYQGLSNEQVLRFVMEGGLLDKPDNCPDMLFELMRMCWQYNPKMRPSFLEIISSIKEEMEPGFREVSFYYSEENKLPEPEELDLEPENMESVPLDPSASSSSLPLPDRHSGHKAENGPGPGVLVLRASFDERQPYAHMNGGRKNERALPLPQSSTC
# Sequence of UniProt P42680 (whole entry, looked up): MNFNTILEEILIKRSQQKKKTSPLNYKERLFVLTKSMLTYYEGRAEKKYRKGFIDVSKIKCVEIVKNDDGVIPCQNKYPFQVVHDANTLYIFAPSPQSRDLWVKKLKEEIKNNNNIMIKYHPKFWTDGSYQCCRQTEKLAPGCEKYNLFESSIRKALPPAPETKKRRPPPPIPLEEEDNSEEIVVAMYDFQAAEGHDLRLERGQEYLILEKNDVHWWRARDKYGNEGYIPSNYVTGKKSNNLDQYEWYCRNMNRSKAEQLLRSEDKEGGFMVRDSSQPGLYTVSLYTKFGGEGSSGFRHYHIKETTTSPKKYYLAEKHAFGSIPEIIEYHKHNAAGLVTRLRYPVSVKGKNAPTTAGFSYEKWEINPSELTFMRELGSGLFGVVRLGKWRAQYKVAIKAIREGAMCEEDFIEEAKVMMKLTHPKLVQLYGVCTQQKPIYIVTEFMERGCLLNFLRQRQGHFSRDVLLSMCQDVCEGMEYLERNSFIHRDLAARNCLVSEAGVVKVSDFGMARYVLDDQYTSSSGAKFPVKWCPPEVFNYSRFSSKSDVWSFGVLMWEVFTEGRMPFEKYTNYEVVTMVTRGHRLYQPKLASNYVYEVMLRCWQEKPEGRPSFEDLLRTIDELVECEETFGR
# Sequence of UniProt Q9HBY8 (whole entry, looked up): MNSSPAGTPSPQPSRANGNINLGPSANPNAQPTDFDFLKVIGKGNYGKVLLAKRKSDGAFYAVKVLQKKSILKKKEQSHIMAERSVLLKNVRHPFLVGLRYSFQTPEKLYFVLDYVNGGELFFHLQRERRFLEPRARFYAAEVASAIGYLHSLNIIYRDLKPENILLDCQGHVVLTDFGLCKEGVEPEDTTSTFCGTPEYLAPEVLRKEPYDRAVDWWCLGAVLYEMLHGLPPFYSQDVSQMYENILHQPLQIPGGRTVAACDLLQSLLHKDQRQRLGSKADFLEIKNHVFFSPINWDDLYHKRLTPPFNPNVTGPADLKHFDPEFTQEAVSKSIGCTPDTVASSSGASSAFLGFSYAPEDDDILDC
# Sequence of UniProt Q96PN8 (whole entry, looked up): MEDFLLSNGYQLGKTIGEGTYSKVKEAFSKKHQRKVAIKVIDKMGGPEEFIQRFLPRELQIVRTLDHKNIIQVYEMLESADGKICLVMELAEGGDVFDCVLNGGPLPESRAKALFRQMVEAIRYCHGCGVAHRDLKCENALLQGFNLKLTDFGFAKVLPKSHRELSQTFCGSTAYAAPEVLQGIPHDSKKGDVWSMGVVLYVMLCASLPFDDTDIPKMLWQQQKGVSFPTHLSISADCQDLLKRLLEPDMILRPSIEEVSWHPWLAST
# Sequence of UniProt P49674 (whole entry, looked up): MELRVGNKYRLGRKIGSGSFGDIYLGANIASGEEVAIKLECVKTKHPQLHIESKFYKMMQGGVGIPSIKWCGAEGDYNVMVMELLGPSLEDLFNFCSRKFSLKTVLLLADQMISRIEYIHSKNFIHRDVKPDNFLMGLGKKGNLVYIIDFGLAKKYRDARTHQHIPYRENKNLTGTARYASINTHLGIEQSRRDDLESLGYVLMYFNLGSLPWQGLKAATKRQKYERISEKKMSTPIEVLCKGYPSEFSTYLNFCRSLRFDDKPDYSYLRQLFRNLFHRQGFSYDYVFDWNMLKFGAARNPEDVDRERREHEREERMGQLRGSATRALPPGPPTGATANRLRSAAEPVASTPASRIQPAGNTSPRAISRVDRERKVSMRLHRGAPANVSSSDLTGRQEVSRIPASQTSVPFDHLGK
# Sequence of UniProt P23458 (whole entry, looked up): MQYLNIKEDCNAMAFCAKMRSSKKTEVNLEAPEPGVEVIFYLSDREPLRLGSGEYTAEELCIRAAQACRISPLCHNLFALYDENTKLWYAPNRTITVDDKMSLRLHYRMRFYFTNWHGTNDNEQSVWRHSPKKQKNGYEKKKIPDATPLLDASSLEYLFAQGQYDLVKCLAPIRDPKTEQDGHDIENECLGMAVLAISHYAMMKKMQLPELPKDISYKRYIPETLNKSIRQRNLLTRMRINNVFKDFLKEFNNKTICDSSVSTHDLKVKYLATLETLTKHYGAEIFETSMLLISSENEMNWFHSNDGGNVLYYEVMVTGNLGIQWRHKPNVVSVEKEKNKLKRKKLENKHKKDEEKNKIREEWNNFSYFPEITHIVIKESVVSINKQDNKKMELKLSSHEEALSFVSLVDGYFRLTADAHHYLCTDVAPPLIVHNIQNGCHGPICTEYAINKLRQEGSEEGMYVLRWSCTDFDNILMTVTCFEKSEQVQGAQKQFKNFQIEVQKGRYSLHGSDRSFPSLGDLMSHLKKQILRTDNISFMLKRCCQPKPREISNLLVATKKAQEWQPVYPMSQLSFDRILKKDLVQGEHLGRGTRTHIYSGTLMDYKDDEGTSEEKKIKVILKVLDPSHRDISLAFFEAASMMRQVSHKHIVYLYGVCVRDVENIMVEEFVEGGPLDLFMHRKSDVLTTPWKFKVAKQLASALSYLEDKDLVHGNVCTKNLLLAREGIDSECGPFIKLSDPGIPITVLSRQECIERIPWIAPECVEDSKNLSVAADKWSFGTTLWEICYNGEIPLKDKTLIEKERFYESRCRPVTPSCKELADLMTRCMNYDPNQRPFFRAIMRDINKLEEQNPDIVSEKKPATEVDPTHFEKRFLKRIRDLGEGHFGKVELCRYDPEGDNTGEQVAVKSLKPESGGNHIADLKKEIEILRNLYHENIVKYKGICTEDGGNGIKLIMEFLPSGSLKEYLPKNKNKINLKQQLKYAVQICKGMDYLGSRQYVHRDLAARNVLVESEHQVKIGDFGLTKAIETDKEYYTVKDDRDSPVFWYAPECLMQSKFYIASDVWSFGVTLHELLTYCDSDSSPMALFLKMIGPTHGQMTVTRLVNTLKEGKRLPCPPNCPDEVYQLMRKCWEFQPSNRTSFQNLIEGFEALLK
# Sequence of UniProt P49760 (whole entry, looked up): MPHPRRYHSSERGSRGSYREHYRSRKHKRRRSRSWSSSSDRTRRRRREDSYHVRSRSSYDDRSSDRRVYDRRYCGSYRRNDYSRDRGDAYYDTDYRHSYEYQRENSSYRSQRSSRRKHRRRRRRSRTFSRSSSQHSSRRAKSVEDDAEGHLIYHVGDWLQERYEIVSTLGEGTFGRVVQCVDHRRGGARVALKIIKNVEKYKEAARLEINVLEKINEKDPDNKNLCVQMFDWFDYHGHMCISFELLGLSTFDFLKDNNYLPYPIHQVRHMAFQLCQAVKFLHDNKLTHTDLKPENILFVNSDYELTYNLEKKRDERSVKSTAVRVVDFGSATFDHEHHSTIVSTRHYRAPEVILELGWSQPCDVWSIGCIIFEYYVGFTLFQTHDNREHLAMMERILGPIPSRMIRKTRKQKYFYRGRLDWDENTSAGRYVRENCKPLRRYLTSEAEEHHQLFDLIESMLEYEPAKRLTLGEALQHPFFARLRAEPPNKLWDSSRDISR

# Block 1 — observed: cell-free assay; method: competition with immobilised ligand; concentration: 1 µM
# Compound: CNCc1ccccc1-c1csc([C@@H](C)Nc2nc(C)nc3cc(OC)c(OC)cc23)c1
target,remaining binding [%]
"Insulin receptor (INSR, Homo sapiens, UniProt P06213)",79
"CSNK1G3 (Homo sapiens, UniProt Q9Y6M4)",99
"TSSK3 (Homo sapiens, UniProt Q96PN8)",100

# Block 2 — method: aptamer microarray, sandwich; form: DNA with 2'F-ANA; matrix: in vitro; concentration: 200 nM; together with: Cy3 exosite-II aptamer, 400 nM; direction: higher = stronger binding; oligonucleotide: GGTTGGTGTGGTTGG
# Target: Prothrombin, mature alpha-thrombin (F2, Homo sapiens, UniProt P00734)
# Notes: whole 15-mer aptamer, many near background
Modification,mean fluorescence intensity
2'F-ANA at 1 3 4 7 8 9 10 12 15,87.7 a.u.
2'F-ANA at 2 6 8 12 13 14 15,165 a.u.
2'F-ANA at 3 10 11 12 14,401 a.u.
2'F-ANA at 2 4 5 14 15,42.9 a.u.
2'F-ANA at 2 3 6 7 8 9 10 14,298 a.u.
2'F-ANA at 3 5 6 8 9 10 12 13 15,59.1 a.u.
2'F-ANA at 1 3 4 7 12 13 15,340 a.u.
2'F-ANA at 1 2 3 4 5 9 12,136 a.u.

# Block 3 — method: protein-binding microarray; form: double-stranded DNA, one strand shown; matrix: in vitro; concentration: 2540 nM top; notes: 60-bp whole probe; together with: salmon DNA 0.4 mg/ml; baseline: random background probes; direction: higher = stronger binding; constant ends, left off below: GCCTAGCAC … GTCTTGATTCGCTTGACGCTGCTG
# Target: Interferon regulatory factor 3, full length, phosphomimetic (IRF3, Homo sapiens, UniProt Q14653, residues 1-427, S386D/S396D/S398D/S402D/T404D/S405D)
# Construct (chain): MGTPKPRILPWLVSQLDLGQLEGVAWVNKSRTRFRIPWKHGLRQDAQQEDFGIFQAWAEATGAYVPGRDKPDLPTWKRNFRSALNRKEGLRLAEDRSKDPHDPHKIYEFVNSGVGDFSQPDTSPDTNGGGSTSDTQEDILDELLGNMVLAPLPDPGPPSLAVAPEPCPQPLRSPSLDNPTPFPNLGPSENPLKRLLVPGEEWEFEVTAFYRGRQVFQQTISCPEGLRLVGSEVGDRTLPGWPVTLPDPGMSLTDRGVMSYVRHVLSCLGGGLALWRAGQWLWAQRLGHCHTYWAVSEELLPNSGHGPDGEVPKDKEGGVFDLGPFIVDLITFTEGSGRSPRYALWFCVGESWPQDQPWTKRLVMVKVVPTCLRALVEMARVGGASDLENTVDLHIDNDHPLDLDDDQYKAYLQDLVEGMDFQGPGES
Oligonucleotide,fitted relative affinity [z-score]
TGCTTTGGACCCAGGGCTAAGTGCTAG,-0.786
GATGGACTGGGGACTGGGGACGTGCTA,-1.05
TTAGATTTCAGACTGGAATAGTGCTAG,0.703
GTAGGACTGCTTTTCCTTTAGTGCTAG,0.836
TCAGGTTTCGGGTATCGGTTAGTGCTA,4.74
GACGGACTGGGTTTCGGGTCGTGCTAG,1.67
GACGATTTCAGTATCGAGACGTGCTAG,2.45
CTCTTGATCCCGAACTGGCCGTGCTAG,0.156

# Block 4 — observed: enzyme activity; mode: inhibitor; concentration: 0.5 µM; baseline: control
# SMILES: Cc1cc(Nc2cc(N3CCN(C)CC3)nc(Sc3ccc(NC(=O)C4CC4)cc3)n2)[nH]n1
target,remaining activity
"CSNK1E (Homo sapiens, UniProt P49674)",98.8%
"Cyclin-dependent kinase 2, with cyclin E (CDK2, Homo sapiens, UniProt P24941)",94.4%
"JAK1 (Homo sapiens, UniProt P23458)",91.9%
"TEC (Homo sapiens, UniProt P42680)",112%
"MAP3K20 (Homo sapiens, UniProt Q9NYL2)",91%
"CAMK1 (Homo sapiens, UniProt Q14012)",103%
"SGK2 (Homo sapiens, UniProt Q9HBY8)",95.5%
"IGF1R (Homo sapiens, UniProt P08069)",96.3%
"CLK2 (Homo sapiens, UniProt P49760)",88%
"CLK1 (Homo sapiens, UniProt P49759)",106%

# For quick reference, copied from above (block 2):
Modification,mean fluorescence intensity
2'F-ANA at 3 5 6 8 9 10 12 13 15,59.1 a.u.
2'F-ANA at 2 4 5 14 15,42.9 a.u.
2'F-ANA at 3 10 11 12 14,401 a.u.
2'F-ANA at 2 3 6 7 8 9 10 14,298 a.u.
2'F-ANA at 1 3 4 7 8 9 10 12 15,87.7 a.u.
